# Assay results from different studies.
# A part holds a random share of what one study measured. Changes are numbered by the printed parent chain.
# Chain of UniProt Q8NI60 (whole entry, looked up): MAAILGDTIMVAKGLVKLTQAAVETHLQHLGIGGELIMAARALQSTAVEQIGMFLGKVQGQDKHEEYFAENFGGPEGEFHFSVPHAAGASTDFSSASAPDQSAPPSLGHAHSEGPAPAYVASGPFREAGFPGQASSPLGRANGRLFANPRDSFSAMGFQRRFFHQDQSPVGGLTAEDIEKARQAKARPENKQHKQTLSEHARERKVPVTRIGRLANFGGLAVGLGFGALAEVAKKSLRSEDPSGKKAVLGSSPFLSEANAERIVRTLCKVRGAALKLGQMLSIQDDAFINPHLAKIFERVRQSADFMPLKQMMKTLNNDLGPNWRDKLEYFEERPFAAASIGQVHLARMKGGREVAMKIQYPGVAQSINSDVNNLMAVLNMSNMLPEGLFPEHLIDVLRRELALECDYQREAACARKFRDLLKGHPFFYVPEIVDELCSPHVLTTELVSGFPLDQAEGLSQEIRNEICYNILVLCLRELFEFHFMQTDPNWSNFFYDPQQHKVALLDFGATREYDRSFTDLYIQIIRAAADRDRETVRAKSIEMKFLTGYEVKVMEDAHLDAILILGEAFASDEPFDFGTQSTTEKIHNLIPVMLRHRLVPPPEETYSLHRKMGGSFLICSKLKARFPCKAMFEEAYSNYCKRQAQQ
# Chain of UniProt P41743 (whole entry, looked up): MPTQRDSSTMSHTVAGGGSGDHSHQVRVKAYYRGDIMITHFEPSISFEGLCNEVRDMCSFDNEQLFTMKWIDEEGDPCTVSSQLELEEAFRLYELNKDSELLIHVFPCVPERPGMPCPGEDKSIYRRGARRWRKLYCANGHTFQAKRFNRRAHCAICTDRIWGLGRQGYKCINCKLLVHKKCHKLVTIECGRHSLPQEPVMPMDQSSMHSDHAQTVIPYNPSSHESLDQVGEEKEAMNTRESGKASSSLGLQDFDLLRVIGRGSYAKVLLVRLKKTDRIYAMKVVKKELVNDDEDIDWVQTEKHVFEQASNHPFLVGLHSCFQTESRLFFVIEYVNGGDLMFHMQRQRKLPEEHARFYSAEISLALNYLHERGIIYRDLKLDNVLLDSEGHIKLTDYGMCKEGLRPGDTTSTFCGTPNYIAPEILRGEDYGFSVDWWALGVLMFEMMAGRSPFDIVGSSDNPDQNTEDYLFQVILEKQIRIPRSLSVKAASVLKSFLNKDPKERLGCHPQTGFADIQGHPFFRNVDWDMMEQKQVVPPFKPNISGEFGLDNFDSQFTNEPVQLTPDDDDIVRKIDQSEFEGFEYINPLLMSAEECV
# Chain of UniProt O60331 (whole entry, looked up): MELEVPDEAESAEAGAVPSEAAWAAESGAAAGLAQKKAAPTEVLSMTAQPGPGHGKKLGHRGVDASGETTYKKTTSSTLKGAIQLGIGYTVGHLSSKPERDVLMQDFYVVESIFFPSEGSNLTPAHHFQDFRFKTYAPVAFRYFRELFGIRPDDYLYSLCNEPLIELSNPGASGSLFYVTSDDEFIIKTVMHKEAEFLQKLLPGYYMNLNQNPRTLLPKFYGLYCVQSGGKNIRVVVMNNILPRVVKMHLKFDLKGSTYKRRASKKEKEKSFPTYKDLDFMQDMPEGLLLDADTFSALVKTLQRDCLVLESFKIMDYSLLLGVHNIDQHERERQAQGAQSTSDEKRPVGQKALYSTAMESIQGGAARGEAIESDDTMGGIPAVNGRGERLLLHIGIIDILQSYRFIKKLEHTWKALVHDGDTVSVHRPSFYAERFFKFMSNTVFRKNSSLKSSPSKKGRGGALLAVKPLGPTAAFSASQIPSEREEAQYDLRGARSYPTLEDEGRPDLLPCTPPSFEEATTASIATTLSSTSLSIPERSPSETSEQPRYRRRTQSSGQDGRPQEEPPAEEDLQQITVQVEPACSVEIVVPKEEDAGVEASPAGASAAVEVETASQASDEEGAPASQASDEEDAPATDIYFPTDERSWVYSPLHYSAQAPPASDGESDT
# Chain of UniProt Q8IU85 (whole entry, looked up): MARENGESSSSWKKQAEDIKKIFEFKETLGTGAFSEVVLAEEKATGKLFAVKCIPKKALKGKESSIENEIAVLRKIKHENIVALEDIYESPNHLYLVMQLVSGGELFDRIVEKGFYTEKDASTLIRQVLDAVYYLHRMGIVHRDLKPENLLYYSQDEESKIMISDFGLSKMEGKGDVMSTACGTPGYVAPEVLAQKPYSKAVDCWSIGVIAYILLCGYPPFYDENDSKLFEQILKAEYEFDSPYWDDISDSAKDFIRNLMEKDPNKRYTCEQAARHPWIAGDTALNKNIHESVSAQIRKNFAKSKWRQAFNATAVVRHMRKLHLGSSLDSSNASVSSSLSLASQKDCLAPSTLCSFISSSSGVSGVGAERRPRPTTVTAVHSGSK
# Chain of UniProt Q7KZI7 (whole entry, looked up): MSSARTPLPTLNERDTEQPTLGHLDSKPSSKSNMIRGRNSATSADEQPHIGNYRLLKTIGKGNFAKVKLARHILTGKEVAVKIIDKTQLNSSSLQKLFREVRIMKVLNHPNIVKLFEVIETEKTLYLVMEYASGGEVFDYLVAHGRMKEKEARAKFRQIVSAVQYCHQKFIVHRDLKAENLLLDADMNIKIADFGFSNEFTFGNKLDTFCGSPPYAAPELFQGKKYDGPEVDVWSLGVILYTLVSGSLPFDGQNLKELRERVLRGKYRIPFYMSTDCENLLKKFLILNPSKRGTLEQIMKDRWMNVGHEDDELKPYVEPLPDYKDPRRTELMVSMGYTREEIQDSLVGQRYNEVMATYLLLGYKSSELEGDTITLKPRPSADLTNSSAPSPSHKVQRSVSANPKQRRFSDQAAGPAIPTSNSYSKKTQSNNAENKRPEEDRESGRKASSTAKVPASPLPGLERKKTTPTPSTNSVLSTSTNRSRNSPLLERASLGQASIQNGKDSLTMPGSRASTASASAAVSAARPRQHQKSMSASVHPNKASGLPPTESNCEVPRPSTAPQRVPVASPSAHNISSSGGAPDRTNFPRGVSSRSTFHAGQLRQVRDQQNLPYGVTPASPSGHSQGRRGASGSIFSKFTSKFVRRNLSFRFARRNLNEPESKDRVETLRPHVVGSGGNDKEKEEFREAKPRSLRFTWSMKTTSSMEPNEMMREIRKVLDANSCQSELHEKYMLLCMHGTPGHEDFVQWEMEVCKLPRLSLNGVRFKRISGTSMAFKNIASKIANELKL
# Chain of UniProt Q6DT37 (whole entry, looked up): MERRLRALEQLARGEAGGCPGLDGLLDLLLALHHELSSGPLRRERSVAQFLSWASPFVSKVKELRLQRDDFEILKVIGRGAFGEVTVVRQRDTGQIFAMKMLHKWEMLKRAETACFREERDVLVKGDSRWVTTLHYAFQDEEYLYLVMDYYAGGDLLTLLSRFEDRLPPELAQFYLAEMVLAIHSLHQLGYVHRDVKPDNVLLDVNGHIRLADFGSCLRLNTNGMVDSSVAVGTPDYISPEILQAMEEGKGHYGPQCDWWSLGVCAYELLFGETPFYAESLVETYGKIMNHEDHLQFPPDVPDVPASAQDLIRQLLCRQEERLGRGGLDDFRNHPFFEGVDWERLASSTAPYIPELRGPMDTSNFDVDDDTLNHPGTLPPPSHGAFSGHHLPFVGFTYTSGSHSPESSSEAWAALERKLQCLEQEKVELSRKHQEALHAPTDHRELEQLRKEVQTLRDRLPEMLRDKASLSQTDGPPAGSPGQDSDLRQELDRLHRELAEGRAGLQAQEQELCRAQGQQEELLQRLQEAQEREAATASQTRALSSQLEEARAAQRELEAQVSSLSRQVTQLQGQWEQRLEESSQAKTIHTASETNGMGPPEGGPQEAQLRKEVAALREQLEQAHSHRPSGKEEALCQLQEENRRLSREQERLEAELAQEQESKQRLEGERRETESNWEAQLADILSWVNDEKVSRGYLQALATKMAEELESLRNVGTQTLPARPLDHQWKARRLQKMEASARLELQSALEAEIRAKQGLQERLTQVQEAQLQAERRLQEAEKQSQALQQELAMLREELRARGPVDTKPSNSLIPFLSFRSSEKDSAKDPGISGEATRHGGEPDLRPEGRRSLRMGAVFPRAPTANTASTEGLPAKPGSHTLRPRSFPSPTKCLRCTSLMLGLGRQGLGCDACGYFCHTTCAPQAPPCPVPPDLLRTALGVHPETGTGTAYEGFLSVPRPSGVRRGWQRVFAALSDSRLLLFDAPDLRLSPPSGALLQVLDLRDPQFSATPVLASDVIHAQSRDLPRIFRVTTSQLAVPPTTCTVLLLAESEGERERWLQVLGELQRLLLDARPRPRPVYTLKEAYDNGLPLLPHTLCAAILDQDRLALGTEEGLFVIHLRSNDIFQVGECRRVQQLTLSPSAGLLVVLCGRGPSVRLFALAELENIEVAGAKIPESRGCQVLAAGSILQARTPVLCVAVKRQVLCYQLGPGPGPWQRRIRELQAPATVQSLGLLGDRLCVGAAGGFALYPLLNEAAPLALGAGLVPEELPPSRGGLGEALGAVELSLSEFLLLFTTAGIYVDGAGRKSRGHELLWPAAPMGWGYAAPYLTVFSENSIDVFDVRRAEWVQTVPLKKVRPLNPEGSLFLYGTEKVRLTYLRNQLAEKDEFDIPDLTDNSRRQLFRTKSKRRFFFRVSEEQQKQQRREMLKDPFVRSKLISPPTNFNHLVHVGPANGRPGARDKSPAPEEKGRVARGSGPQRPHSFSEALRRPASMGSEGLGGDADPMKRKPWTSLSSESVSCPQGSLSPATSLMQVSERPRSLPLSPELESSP
# Chain of UniProt Q6P2M8 (whole entry, looked up): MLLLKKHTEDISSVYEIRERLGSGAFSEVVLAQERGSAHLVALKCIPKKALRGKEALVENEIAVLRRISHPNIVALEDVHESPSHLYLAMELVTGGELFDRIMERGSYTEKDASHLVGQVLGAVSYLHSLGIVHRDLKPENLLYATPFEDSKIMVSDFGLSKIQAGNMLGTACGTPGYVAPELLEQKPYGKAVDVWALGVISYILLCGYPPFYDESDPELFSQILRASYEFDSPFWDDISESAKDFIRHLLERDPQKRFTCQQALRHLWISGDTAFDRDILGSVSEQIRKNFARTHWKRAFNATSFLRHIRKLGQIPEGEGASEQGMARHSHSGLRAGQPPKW

# Series 1
# Compound: NS(=O)(=O)c1cc(NC(=O)Cc2ccccc2)ccc1Oc1cccc(Cl)c1
# Concentration: 1 µM
target,assay,remaining binding
"CDC42BPG (Homo sapiens, UniProt Q6DT37)",competition binding,100%
"Tyrosine-protein kinase ABL1, non-phosphorylated (ABL1, Homo sapiens, UniProt P00519, F317I)","binding, competition with immobilised ligand",51%
"ULK2 (Homo sapiens, UniProt Q8IYT8)","cell-free assay, competition with immobilised ligand",52%
"Tyrosine-protein kinase ABL1, phosphorylated (ABL1, Homo sapiens, UniProt P00519, H396P)","cell-free assay, competition with immobilised ligand",73%
"CHEK2 (Homo sapiens, UniProt O96017)","cell-free assay, competition with immobilised ligand",81%
"PIP5K1C (Homo sapiens, UniProt O60331)","cell-free assay, competition with immobilised ligand",100%
"MAP3K20 (Homo sapiens, UniProt Q9NYL2)","cell-free assay, competition with immobilised ligand",100%
"CAMK1D (Homo sapiens, UniProt Q8IU85)","cell-free assay, competition with immobilised ligand",100%
"PRKCI (Homo sapiens, UniProt P41743)","cell-free assay, competition with immobilised ligand",93%
"CDKL2 (Homo sapiens, UniProt Q92772)","cell-free assay, competition with immobilised ligand",99%
"MARK1 (Homo sapiens, UniProt Q9P0L2)","cell-free assay, competition with immobilised ligand",100%
"COQ8A (Homo sapiens, UniProt Q8NI60)","cell-free assay, competition with immobilised ligand",94%

# Series 2
# Target: Interferon regulatory factor 7, full length, phosphomimetic (IRF7, Homo sapiens, UniProt Q92985, residues 1-503, S471D/S472D/S475D/S476D/S477D/S483D/S484D/S487D)
# Method: protein-binding microarray
# Form: double-stranded DNA, one strand shown
# Sample: in vitro
# Concentration: 2200 nM top
# Notes: 60-bp whole probe
# Together with: salmon DNA 0.4 mg/ml
# Baseline: random background probes
# Direction: higher = stronger binding
# All sequences stand within: GCCTAGCAC … GTCTTGATTCGCTTGACGCTGCTG
# Residues (chain): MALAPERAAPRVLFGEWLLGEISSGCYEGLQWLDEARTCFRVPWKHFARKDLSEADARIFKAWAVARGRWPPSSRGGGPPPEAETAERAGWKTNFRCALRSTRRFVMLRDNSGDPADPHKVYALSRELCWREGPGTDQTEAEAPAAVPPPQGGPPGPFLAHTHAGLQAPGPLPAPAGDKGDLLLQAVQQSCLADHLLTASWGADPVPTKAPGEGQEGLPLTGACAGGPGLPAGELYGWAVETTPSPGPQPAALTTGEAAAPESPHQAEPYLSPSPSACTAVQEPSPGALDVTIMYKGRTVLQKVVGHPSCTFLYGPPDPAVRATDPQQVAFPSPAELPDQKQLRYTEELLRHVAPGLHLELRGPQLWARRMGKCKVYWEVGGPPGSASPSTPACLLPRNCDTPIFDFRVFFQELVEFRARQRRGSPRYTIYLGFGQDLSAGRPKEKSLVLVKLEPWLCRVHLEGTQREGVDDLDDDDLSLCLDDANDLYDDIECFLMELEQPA
Oligonucleotide,fitted relative affinity [z-score]
TGGACTGCACAAGGGCCAGTGTGCTAG,-0.496
TACGGACTGGGGACTGGGGACGTGCTA,-0.512
GACGAAATCAGACTGGAGACGTGCTAG,-0.0109
TTAGGGCTCCTACTGCTTTAGTGCTAG,0.0309
GACGGTCTCGGTATGGGGACGTGCTAG,0.112
TCATCTCTGCTCTTTTCAACTGTGCTA,1.7
GACGATTTCAGTCTCGACACGTGCTAG,0.888
TTACATTTCAGTATCGATTAGTGCTAG,2.21

# Series 3
# SMILES: CC[n+]1c(/C=C/N(C)c2ccccc2)n(-c2ccccc2)c2ccc(-c3nc4ccccc4s3)cc21
# Observed: enzyme activity
# Action: inhibitor
# Concentration: 0.5 µM
# Baseline: control
target,remaining activity [%]
"CLK3 (Homo sapiens, UniProt P49761)",114
"MAPK14 (Homo sapiens, UniProt Q16539)",94.9
"MET (Homo sapiens, UniProt P08581)",108
"MARK4 (Homo sapiens, UniProt Q96L34)",110
"MINK1 (Homo sapiens, UniProt Q8N4C8)",99
"PNCK (Homo sapiens, UniProt Q6P2M8)",114
"MARK2 (Homo sapiens, UniProt Q7KZI7)",91.6
"PRKG2 (Homo sapiens, UniProt Q13237)",92.4
"PAK3 (Homo sapiens, UniProt O75914)",109

# Series 4
# Target: CEP164, C-terminal peptide (human)
# Method: DHFR complementation, deep sequencing
# Sample: yeast
# Notes: single substitutions, model-inferred values
# Baseline: wild type
# Direction: higher = weaker binding
# Starting sequence: PDZK1, PDZ domain 2 (human); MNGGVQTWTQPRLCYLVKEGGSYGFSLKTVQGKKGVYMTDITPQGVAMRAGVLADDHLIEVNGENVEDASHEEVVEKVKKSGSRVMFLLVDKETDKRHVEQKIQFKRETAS; partner HNRVKVYRF
Change,binding free energy change [kcal/mol]
E67V,-0.0517
M48N,-0.0747
N65C,0.275
F87M,0.272
S70K,0.196
V90R,-0.297
P11T,0.149
E64Q,0.000504

# Repeated from above (series 2):
Oligonucleotide,fitted relative affinity [z-score]
GACGGTCTCGGTATGGGGACGTGCTAG,0.112
TTACATTTCAGTATCGATTAGTGCTAG,2.21
TTAGGGCTCCTACTGCTTTAGTGCTAG,0.0309
GACGATTTCAGTCTCGACACGTGCTAG,0.888
TCATCTCTGCTCTTTTCAACTGTGCTA,1.7
